Published values gathered from unrelated publications.
Each line is one published result; not all experiments were run side by side. Values joined by “and” are separate records of one study, mostly repeats; a detail may differ. Numbers after ± are the reported error.
T1: ATRX ADD domain 167-289 K251R/F284Y (Homo sapiens); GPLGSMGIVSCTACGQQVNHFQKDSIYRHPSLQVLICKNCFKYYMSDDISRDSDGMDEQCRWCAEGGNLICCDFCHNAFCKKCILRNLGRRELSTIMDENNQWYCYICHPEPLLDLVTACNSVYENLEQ
B1: Cacna1c 1647-1777 (Mus musculus, UniProt Q01815); sequence looked up; chain NALSLQAGLRTLHDIGPEIRRAISGDLTAEEELDKAMKEAVSAASEDDIFRRAGGLFGNHVTYYQSDSRGNFPQTFATQRPLHINKTGNNQADTESPSHEKLVDSTFTPSSYSSTGSNANINNANNTALGR
B2: dcap-1 (Caenorhabditis elegans, UniProt Q9N363); sequence looked up; chain MSDAKKKAAAELAAKNLAQLQKIDIAASKILDKMPFAAIYHIDAARKEWNQSNCEGTFFVYQRADRPYFSFLIANRNDPSDFIEPLTLNHILRHDGNFIYFYKDLASIQALWFHQIDDAQKIYNLLQKLVNRLKGSTTEQARAAKAASEAPQASVPAPTQAPAAPAQAPQMAPQAPPKVDLLQLIKSAQNPPQKSAATIEQMPPMLQKLMLKEPGAAMSADELEKDLIKSAKPHRNHLLQEFTNSTSAISLAAVSTKPLHGSEGDVESDIAEGEILEPLDASFVVGSGEQTPVLNKEQFISAIAHLMQTDDEFVSQIHQAYVSALNRRLNID
B3: SIL1 20-421 (Saccharomyces cerevisiae, UniProt Q08199); chain TILHSSIHSVPSGGEIISAEDLKELEISGNSICVDNRCYPKIFEPRHDWQPILPGQELPGGLDIRINMDTGLKEAKLNDEKNVGDNGSHELIVSSEDMKASPGDYEFSSDFKEMRNIIDSNPTLSSQDIARLEDSFDRIMEFAHDYKHGYKIITHEFALLANLSLNENLPLTLRELSTRVITSCLRNNPPVVEFINESFPNFKSKIMAALSNLNDSNHRSSNILIKRYLSILNELPVTSEDLPIYSTVVLQNVYERNNKDKQLQIKVLELISKILKADMYENDDTNLILFKRNAENWSSNLQEWANEFQEMVQNKSIDELHTRTFFDTLYNLKKIFKSDITINKGFLNWLAQQCKARQSNLDNGLQERDTEQDSFDKKLIDSRHLIFGNPMAHRIKNFRDEL
B4: mxt 577-640 (Drosophila melanogaster, UniProt Q9VR35); sequence looked up; chain SRVSYDIEHLLYYSMSPHSWTLPTDWQKMQETAPSILRNKDLQDESQRFDGDKYLASIKTAAKR
B5: HMGB1 (Homo sapiens, UniProt P09429); chain MGKGDPKKPRGKMSSYAFFVQTCREEHKKKHPDASVNFSEFSKKCSERWKTMSAKEKGKFEDMAKADKARYEREMKTYIPPKGETKKKFKDPNAPKRPPSAFFLFCSEYRPKIKGEHPGLSIGDVAKKLGEMWNNTAADDKQPYEKKAAKLKEKYEKDIAAYRAKGKPDAAKKGVVKAEKSKKKKEEEEDEEDEEDEEEEEDEEDEDEEEDDDDE
B6: PLXND1 1553-1678 S1614V/T1615A (Homo sapiens, UniProt Q9Y4D7); chain AKPRNLNVSFQGCGMDSLSVRAMDTDTLTQVKEKILEAFCKNVPYSQWPRAEDVDLEWFASVAQSYILRDLDDTSVVEDGRKKLNTLAHYKIPEGASLAMSLIDKKDNTLGRVKDLDTEKYFHLVL
Chain of UniProt P48067 (whole entry, looked up): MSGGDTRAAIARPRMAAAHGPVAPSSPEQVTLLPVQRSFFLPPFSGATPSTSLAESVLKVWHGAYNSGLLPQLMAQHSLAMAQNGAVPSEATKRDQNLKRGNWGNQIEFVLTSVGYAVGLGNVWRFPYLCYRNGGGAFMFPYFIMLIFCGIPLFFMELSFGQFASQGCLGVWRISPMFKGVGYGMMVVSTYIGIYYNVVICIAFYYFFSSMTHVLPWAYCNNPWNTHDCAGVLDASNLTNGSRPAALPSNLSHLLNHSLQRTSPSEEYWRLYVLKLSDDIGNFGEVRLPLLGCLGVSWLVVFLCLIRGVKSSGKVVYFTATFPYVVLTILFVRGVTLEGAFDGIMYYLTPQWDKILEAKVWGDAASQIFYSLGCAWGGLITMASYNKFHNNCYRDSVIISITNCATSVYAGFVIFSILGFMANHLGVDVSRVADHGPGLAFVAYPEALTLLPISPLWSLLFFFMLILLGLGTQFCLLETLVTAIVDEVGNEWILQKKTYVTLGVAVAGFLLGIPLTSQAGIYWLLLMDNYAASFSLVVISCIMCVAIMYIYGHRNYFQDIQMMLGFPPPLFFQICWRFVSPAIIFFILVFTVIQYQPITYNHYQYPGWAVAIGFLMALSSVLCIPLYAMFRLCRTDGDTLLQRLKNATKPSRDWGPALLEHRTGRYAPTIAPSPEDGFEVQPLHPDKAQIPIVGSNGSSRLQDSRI
Chain of UniProt P52198 (whole entry, looked up): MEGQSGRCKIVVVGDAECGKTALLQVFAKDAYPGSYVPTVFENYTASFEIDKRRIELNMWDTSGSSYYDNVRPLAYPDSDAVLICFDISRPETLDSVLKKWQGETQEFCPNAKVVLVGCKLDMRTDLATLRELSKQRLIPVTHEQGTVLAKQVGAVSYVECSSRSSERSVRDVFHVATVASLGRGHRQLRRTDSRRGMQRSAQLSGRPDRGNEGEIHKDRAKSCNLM
Chain of UniProt P53874 (whole entry, looked up): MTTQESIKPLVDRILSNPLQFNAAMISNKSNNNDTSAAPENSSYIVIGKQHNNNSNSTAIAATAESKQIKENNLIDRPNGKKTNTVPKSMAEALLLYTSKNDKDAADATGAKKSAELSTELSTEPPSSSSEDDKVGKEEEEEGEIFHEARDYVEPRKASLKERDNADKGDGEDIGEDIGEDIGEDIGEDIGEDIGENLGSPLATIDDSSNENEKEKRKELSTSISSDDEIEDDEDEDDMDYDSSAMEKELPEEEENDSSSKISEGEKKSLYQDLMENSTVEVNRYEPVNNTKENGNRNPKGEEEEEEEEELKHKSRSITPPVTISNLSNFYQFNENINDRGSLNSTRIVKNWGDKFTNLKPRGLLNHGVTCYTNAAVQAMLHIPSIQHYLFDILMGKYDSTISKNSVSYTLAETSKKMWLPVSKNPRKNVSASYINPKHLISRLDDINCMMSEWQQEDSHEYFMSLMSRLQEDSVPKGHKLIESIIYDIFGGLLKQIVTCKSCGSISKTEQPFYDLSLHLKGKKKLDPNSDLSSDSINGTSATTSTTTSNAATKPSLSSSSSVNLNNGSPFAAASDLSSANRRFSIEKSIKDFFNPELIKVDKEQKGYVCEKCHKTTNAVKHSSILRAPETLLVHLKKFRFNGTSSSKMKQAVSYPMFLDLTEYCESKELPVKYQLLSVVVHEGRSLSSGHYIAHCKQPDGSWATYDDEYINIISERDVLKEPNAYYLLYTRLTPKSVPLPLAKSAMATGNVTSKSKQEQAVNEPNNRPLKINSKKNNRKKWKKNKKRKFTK
Chain of UniProt O60603 (whole entry, looked up): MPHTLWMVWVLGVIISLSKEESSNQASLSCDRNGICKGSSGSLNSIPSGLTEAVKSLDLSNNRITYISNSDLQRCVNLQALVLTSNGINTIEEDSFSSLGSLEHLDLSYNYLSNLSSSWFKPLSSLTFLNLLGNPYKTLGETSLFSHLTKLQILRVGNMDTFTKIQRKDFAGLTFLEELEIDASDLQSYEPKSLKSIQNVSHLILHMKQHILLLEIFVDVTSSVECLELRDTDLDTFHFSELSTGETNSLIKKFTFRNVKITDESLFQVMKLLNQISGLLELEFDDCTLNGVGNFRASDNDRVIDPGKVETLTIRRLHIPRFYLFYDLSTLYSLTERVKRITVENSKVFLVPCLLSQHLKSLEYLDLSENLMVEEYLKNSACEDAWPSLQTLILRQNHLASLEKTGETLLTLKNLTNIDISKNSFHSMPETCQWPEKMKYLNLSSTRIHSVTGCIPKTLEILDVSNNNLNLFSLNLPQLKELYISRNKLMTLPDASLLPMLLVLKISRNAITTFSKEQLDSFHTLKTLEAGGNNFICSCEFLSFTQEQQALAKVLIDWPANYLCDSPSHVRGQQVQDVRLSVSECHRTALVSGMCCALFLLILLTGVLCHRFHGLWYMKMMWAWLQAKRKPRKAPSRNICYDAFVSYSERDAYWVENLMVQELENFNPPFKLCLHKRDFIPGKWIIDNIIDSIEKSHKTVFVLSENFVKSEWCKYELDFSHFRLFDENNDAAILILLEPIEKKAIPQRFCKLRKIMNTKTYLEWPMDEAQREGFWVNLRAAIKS
Chain of UniProt G5EES6 (whole entry, looked up): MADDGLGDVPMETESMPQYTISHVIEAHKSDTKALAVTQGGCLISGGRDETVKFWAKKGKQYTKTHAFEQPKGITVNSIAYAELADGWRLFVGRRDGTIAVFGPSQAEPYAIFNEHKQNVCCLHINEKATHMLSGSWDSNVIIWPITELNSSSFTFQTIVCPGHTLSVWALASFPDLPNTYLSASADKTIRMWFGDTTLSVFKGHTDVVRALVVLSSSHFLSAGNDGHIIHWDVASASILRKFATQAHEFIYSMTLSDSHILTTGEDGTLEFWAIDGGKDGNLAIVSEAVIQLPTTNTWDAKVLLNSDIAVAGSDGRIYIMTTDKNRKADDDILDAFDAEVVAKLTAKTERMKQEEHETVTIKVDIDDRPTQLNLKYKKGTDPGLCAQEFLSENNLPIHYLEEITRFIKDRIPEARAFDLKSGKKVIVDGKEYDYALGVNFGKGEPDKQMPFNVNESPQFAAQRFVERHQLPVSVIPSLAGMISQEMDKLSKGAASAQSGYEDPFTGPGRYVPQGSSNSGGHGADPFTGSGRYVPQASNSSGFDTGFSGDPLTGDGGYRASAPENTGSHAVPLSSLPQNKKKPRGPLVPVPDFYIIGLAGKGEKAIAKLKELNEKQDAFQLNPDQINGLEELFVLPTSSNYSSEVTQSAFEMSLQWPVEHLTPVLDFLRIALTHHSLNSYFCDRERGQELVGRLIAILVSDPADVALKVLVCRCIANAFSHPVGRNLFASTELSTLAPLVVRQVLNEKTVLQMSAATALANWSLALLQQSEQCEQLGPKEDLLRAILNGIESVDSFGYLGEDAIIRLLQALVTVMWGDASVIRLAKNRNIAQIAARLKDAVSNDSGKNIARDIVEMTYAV

B1 (Cacna1c 1647-1777)  Kd (Jph2 1-440 S165K (Mus musculus, UniProt Q9ET78); ITC): 5170 nM
B2 (dcap-1)  Kd (UFD-3, fluorescent RED-NHS label (Caenorhabditis elegans, UniProt G5EES6); MST): 75.6 nM
CALLLSAPRR (GOT2 (Gallus gallus); fluorescein label)  Kd (HSPA9 mature G489E (Homo sapiens, UniProt P38646); FP; peptide): 24700 nM
B3 (SIL1 20-421)  Kd (HSPA5 28-654 K294F (Homo sapiens, UniProt P11021); MST): 38000 ± 8000 nM
B4 (mxt 577-640)  Kd (eIF4E1 69-248 (Drosophila melanogaster, UniProt P48598-2); ITC): 0.52 nM
MEAIAKYDFKATADDELSFKRGDILKVLNEECDQNWYKAELNGKDGFIPKNYIEMKPH (GRB2 N-terminal SH3 domain (Homo sapiens, UniProt P62993))  Kd (SOS1 peptide (Homo sapiens, UniProt Q07889); NMR): 210000 nM
QDEKVKESYV  binding intensity (human MAGI1-2/6 PDZ construct (MBP fusion); automated holdup; peptide, purified PDZ protein; concentration not given, unit not given; relative to: biotin control resin, higher = stronger binding): -0.0633
ALQQWVTQV  reporter activation (Jurkat T cells expressing 1G4 TCR; NFAT-eGFP reporter, flow cytometry; peptide; concentration not given, HLA-A*02:01 NY-ESO system): 78%
UBP10 (Saccharomyces cerevisiae, UniProt P53874)  Kd (HTA1/HTB1 H2A/H2B heterodimer 2-132 (Saccharomyces cerevisiae); ITC): 267 ± 163 nM
GRGRGRGRGRGRGRGRGRGRGRGRGRGRGRGRGRGRGRGR ((GR)20 20 repeats; TAMRA label N-terminal)  Kd (TNPO1 W460A/W730A (Homo sapiens, UniProt Q92973-2); fluorescence polarisation; peptide): 47.1 ± 4.1 nM
LIMQLMPFG  binding score (HLA class I histocompatibility antigen, A alpha chain, allele A*02:01 (Homo sapiens, UniProt P04439); conformational ELISA; peptide; concentration not given; relative to: positive control peptide, direction not given): 13.3%
B5 (HMGB1)  Kd (TLR2 (Homo sapiens, UniProt O60603); SPR): 496 nM
ARTKQTARAS (H3C1 1-10 K9A)  Kd (T1, ATRX ADD domain 167-289 K251R/F284Y (Homo sapiens); ITC; peptide): 26800 nM
B6 (PLXND1 1553-1678 S1614V/T1615A)  Kd (RND2 1-227 (Homo sapiens, UniProt P52198); SPR): 4130 ± 70 nM
NRVDSKETEC  binding intensity (human MAGI1-2/6 PDZ construct (MBP fusion); automated holdup; peptide, crude extract; concentration not given, uncorrected, unit not given; relative to: biotin control resin, higher = stronger binding): 0.217
methyl-β-cyclodextrin  glycine uptake rate (SLC6A9 (Homo sapiens, UniProt P48067); transport activity, [3H]glycine uptake; 2.5 mg/mL, 1 min, added: glycine 37.5 µM; higher = more transport): 15 a.u. and 23.5 a.u. and 24.7 a.u. and 14.5 a.u. and 23.1 a.u.
GLFQWISGA  reporter activation (Jurkat T cells expressing 1G4 TCR; NFAT-eGFP reporter, fluorescence microscopy; peptide; concentration not given, HLA-A*02:01 NY-ESO system): 0.00194%
F9 heavy and light chains, activated (UniProt P00740)  Kd (F8 activated, A1/A2/A3-C1-C2 R336Q/R562Q (Homo sapiens); FXa generation, factor Xa generation rate; added: FX): 1.5 nM

For quick reference, copied from above:
B4 (mxt 577-640)  Kd (eIF4E1 69-248 (Drosophila melanogaster, UniProt P48598-2); ITC): 0.52 nM
GLFQWISGA  reporter activation (Jurkat T cells expressing 1G4 TCR; NFAT-eGFP reporter, fluorescence microscopy; peptide; concentration not given, HLA-A*02:01 NY-ESO system): 0.00194%
B6 (PLXND1 1553-1678 S1614V/T1615A)  Kd (RND2 1-227 (Homo sapiens, UniProt P52198); SPR): 4130 ± 70 nM
